Published values of several laboratories.
Parts stem from different laboratories: compare values within a part only. Positions count from the first letter of the parent shown.

Study 1
Target: MAFK, bZIP domain (human)
Method: DHFR protein complementation
Medium: yeast
Notes: single substitutions, most at no-binding floor
Relative to: wild-type JUN-FOS pair
Reading: higher = stronger binding
Measurement: binding fitness
Starting sequence: JUN, bZIP domain (human); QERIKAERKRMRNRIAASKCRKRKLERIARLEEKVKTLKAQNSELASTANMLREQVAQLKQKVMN; partner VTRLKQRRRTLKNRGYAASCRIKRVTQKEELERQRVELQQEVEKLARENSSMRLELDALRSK
E44P: -1.54 natural log
T48P: -1.53 natural log
S43T: -1.48 natural log
M51S: -1.5 natural log
A46R: -1.48 natural log
S43R: -1.45 natural log
L31E: -1.56 natural log
L45Y: -1.46 natural log
L52S: -1.49 natural log
A57E: -1.45 natural log
A29E: -1.46 natural log
K39S: -1.55 natural log
S43I: -1.62 natural log
R53Y: -1.26 natural log
N42V: -1.33 natural log
T48A: -1.51 natural log
E44S: -1.4 natural log
K34C: -1.44 natural log

Study 2
Target: CCNB2, cyclin fold, Cln2 fusion (human)
Method: yeast growth competition, sequencing
Medium: yeast
Notes: weak parent motif
Relative to: not given
Reading: higher = stronger binding
Measurement: normalised enrichment score
Starting sequence: GMNC docking peptide (human); KNAKRNLSSEFAN; partner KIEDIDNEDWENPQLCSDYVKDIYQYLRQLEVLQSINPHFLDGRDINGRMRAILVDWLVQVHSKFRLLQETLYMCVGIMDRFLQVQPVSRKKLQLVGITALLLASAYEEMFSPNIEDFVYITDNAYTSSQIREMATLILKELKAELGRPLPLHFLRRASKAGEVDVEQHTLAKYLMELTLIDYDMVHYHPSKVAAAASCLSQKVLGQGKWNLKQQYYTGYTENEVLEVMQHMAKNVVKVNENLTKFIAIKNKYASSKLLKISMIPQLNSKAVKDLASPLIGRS
E10D: 0.203
L7N: 0.544
A3Y: 0.274
A12M: 0.304
N6G: 0.481
N2Q: 0.949
N6C: 0.18
L7D: 0.334
L7Q: 0.0389
R5Q: 0.367
S8N: 0.777
S8V: 0.546
K4I: 0.49
L7F: 0.108
N6W: 0.293
S8E: 0.437
L7P: 0.404
F11V: 0.651
A3N: 0.293
E10S: 0.161
S8A: 0.389
A3C: 1.35
E10N: 0.196
E10C: 0.423
K4T: -0.0645

Study 3
Target: RING finger protein unkempt homolog, zinc fingers 1-6, SBP tag (UNK, Homo sapiens, UniProt Q9C0B0, residues 30-357)
UniProt Q9C0B0, sequence (30-357, looked up): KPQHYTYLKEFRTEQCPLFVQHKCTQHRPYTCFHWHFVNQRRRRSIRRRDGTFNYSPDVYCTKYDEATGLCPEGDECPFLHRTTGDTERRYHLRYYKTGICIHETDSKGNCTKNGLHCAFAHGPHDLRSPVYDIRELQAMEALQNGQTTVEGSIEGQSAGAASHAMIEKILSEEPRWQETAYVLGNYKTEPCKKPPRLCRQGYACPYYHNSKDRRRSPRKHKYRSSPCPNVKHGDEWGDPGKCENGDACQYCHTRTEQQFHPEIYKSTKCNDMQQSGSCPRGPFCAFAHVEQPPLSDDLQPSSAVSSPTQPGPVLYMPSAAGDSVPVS
Method: RNA Bind-n-Seq
Form: RNA
Medium: in vitro
Tested at: 100 nM
Notes: RNA with constant flanks, vertebrate orthologous sites, ends assumed
Relative to: input RNA pool
Reading: higher = stronger binding
Measurement: bound/input enrichment
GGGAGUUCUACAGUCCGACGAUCACAGGAGCAGCAUAGGCUGUUUGAGCUUUGGGGAAAUGAGCUUUGCUUUUUAUAUUUAACUAGAAUACUUUUAUAUGAUGGGUGCUUUGAGUGUGAAUGCAGCAGGCUCUUUAUUUCCAACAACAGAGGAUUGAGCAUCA: 2.06 ratio
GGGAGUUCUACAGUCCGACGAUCCUCUCUAAGUGACAGUAUCCCAUCUGUAGCAGAUUCCCACUCAAGUCAUUUUUCUGAGUUUAGUUGCUCUGAUAUGGAAAGUAUGAAAACCUCAUGUAGCCAUGGUUCCAAUGAUUAUCACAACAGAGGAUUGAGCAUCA: 0.483 ratio
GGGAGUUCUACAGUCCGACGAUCGAGCUAAAGGAGUUAGCAUCUUUAUUUUUGUAUCAAAGACAAAGGUUAUUUUGAAAUUAUUAGGAUUUUUACACAACUGUGAAAUCUGUUGCUUUUGUAAACAAGUUGUUUGAUCUUAGGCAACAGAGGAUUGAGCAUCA: 0.559 ratio
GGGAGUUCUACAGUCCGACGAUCAGAGGAUUAGGUUUGAUCCUUUACGUGUUUAAAAAAAAGCAUAAAAACAUUUUAAAAACAUAGAAAAAUUCAGCAAACCAUUUUUAAAGUAGAAGAGGGUUUUAGGUAGGAAAACGUAUUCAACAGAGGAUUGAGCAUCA: 0.432 ratio
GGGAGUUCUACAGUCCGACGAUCGUUGUGACCCAUUUAACAUACACAAAAAAUUAGCCAAAAAAAAUUUACAUGUAAUUGACUUAGAUGAUGCCACUUUUCUGAGUGCAAAAUUUGGAAGACAGCUUGUACCUGGUUGGAAACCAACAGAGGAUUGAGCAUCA: 2.93 ratio
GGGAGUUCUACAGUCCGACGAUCGAGACGUCCCGAGGCUGUGUGUGCAAACACCUCACAGUGCUUGCUCCAUCCCACCAACUCUGAUUACUAGAAAUAUCCUUCUCUUACCUGUUAUUUAUCAAUUUUUCCCAGUAUUUUUAUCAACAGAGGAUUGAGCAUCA: 1.26 ratio
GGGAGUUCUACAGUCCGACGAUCUAUUAAACACCAUCAGCGGCCUUCAAGUACACAGUCUGUUCAGGCACAACUGACUGGUUCGAGUUAAUUUUCAGGAUACAUCCAGGCAGUCAGCACUGUCCUGCAGUCCAGUUGGAGACGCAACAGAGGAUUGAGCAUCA: 0.196 ratio
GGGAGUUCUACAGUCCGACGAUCCUUAAUUAGAAGGUAGUAUGUGUUUCAUAAAGAAAAGUCUUUAUAAUUUUGUUUGUCAUAUCGUAUUUUGGAAUUUGUAUAAUGAGGACGUUUAGAAGCCAUACCAAUGGCUUUUUUUAACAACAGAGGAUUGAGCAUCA: 0.393 ratio

Other studies, line by line
PhoQ, residues 284 288 289 292 302 303 TSTLRA  fold induction (PhoP, residues 12 14 15 18 19 LWHSL (Escherichia coli, UniProt P23836); Sort-seq, refers to: YFP reporter; E. coli; PhoQ-PhoP variant library, added: 10 µM Mg2+; relative to: high Mg2+ state, higher = stronger signaling): 11.7

For quick reference, copied from above (study 1):
A57E: -1.45 natural log
T48A: -1.51 natural log
L45Y: -1.46 natural log
K34C: -1.44 natural log
R53Y: -1.26 natural log
S43T: -1.48 natural log
